# Experimental data from different studies.
# A part holds a random share of what one study measured. Positions count from the first letter of the parent shown.

# Series 1 — technique: protein binding microarray; form: double-stranded DNA, one strand shown; sample: in vitro; concentration: not given; baseline: not given; direction: higher = stronger binding
# Target: Histone acetyltransferase KAT6A, winged helix 1, GST fusion (KAT6A, Homo sapiens, UniProt Q92794, residues 1-85)
# Notes: 8-mer, flanks averaged, mean of 2 arrays, mostly near background
# Construct (chain): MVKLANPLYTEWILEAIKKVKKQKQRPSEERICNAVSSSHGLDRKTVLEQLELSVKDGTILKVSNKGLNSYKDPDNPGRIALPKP
Strand,E-score
AACACCAT,-0.135
CACCAGGA,-0.154
CCGCACGG,0.395
ACGGTAGG,0.166
ATCGGGAC,0.0624
CGTTCCAG,-0.116
AGACGCTG,-0.116
AAAGATGT,-0.101
CGCTCGCA,0.267
ACGTTGGG,-0.317
ATAATTGG,-0.205
TACCCCAA,-0.205
ACATCTAT,-0.0176
ACCTCGCC,0.207
CGTAGCGA,0.179
CGTAATAG,0.0731
CGGTGCAC,0.109
GCATCCGC,0.176
GCTGTGCC,-0.0838
GCTTTACA,0.0624
AATTACCA,-0.0938
CATGATCG,-0.118
CTGCTTGA,-0.192
CACTCTCA,-0.128
CGGCTGAG,0.0698

# Series 2 — target: CREM, bZIP domain (human); technique: DHFR protein complementation; sample: yeast; baseline: wild-type JUN-FOS pair; direction: higher = stronger binding
# Notes: single substitutions, most at no-binding floor
# Starting sequence: JUN, bZIP domain (human); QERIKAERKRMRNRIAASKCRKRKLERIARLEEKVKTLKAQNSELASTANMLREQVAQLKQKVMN; partner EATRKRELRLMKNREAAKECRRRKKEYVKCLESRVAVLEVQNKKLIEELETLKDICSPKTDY
Variant,binding fitness
E33L,-1.41 natural log
E32R,-1.45 natural log
Q41L,-1.55 natural log
R53Q,-1.52 natural log
K39Q,-1.39 natural log
M51T,-1.39 natural log
T48C,-1.49 natural log
R30C,-1.34 natural log
L31G,-1.51 natural log
L38R,-1.52 natural log
Q55R,-1.44 natural log
L38G,-1.51 natural log
K36H,-1.43 natural log
R30L,-1.13 natural log
L38F,-1.5 natural log
S47R,-1.4 natural log

# Series 3 — technique: DHFR PCA, deep sequencing; sample: yeast; with: (+)-ABA 200 µM; baseline: wild-type fitted maximum; direction: higher = stronger binding
# Target: ABI1, truncated, D143A, DHFR fusion (Arabidopsis thaliana)
# Notes: methotrexate growth selection, single substitutions
# Starting sequence: PYL1, truncated, DHFR fusion (Arabidopsis thaliana); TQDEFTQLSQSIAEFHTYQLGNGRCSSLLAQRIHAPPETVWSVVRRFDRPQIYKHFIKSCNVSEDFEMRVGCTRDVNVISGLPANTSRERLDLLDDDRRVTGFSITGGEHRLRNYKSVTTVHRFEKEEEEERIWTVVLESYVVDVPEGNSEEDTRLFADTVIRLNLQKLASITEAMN
Variant,relative binding score [%]
E14D,96.2
T73F,107
V40P,-1.69
P50S,5.31
R113P,34.7
S140D,1.09
R32C,89.4
V40I,78.1
E127K,104
Q2Y,89.8
G148F,66.6
T106G,38.3
S9R,98.3
Y53W,98.6
V70S,84.4
K168I,77.7
H55S,108

# Series 4 — technique: EMSA with sequencing; form: double-stranded DNA, one strand shown; sample: in vitro; concentration: 10 and 20 nM; baseline: negative control set to 0; direction: higher = stronger binding
# Target: Hepatocyte nuclear factor 3-alpha (Foxa1, Mus musculus, UniProt P35582, residues 1-468, full length assumed)
# Chain of UniProt P35582 (whole entry, looked up): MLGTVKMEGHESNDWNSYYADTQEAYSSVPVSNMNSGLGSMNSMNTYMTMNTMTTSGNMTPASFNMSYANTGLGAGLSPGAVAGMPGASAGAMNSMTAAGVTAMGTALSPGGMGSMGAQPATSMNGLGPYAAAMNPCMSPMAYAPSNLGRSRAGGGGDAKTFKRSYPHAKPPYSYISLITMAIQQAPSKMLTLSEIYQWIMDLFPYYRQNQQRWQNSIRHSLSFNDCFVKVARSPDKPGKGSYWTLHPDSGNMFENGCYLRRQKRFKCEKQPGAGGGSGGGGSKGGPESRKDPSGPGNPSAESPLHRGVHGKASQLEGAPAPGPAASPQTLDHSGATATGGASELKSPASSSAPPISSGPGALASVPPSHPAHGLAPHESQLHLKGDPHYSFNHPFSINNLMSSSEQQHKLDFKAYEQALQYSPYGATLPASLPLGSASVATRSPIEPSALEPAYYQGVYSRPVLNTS
# Notes: whole designed probe, mean of two concentrations, ends assumed
# All sequences stand within: GTGAGCGGTGCCCATTGATGGGGAAC … TTTCACTGGGATCGTGGGGAC
Strand,normalised bound fraction
ACTTTTTCTGTCTGTCTCTGCAGATCCTTACAGTGCTCACTTACCTATTCTTTGACTTCAATCTCTTGTTGCTCTCTTTACTCCACATTCCAAAGTAAACAAGCCTTTTTTTTTTTTAATTTCCTTAGAGGCGTATAGTGGAAGAAAGGGAACAAATCTTGCTTAAATTCACCATCTACTAGCTACCATTTCA,0.396 ratio
TCCCTTTTAGAACATGGTGATTTCTCCCCATTTGATGGGCCCTTTTAGACAGCCAGCTCATGCCTTTTCTCCTGGTAAGGGTCTGAAGGTGATGTTTACTTAGATGATGATGAAGTCTGGACAAATGATTCCAAAGGCAAAGATGAATATTCTTCAGGATTTAATGTGGTCATTGAACTTGAAGAGTGGTCAA,0.412 ratio
ACTCTGCCCGCTCCCCAAGGGTAGAAGTCACAGTGTGATTCCTGGGAGGGCATTGCTTCTTATCTATTACTTCATTCATATATAAATAAGACATGTTTGCACTTCCAAGGTGCACCCCCGCCCCGAGGAAGAGGGATGCTGACGTGTAGTAGACGCCTTCCACTCCCTTGCAGAGTGGCTGGGGAGGACAAGA,0.225 ratio
AATGCATTAAGAAAAAGTACACAAATAGTAAGTATACAGCTCAATACATTATTTTGTGAAAATACCTATGTAAGAACTAATGTTGGCAATTAAAGTAAACATGAATAAAACCTTCAAGAAGCCCTCAACATCCCACTTCCAAGTCACCAAACCCACTATTCCATTAGCAATGTGTGAGATTGTCAGTTGCTCT,0.404 ratio
TGATGAGAAACATGATAATTATTTAGTCTGAAAGGATCTTCTCCAATAATTTTTTTTTGTCGTGATACATTCCTTCTCCACCCCCGACTAAATGCAAACAAACCTAAATTGAGGGAAATTCTATGCAATACCTAACCATTATTCATCAAATGTACACAGGAGTACAGTGACACAATCATGGTTCACTGTAACC,0.322 ratio
TTTTTTCCACTTTGCATGCTTGCTTGTGCCTTTTCTCCTGATACTCCTATCTAACTAGAGATTTATTTTCACATTATTTTAGATTACTCTCCCATGTTTACTCTGAAAATCTGTGGCACTCATATTTCATAGTGTAAAATTGTAGCAATCTGAGACTACTACAGTTGTTAGCCTCTTCTCCTTATAACCAGTA,0.135 ratio
CACAGAGTTCAAAGTTGGCTGAGAAAATATACCAGTTGTCCTTGAAACATTCACTGTATTTGATGGCTATCTTTTCTCTAAACATATTGTAATGCAATTTTAAAATTGTTTTGTTTTATAAAACAATAGAATACATCAGCTGAAGTTACCCCCAAAAGAAATGAAAGAAACTTCTGGGTGTGCCCTCAAAATT,-0.00691 ratio
CTGAGGCGCTGCAGGCCCGGCTTCTGGCTGCGGGGGAGCTGTACCCTGAAGCCTCGCCGGAACTCGCGTCTGGGGCCAGCAGGGGGCACTAGAGTCATCTGGGACTGTATGCAAAACCCACTTCCTCCCAGGCCCTCTAGGGGGATGGTCAGGCTTCTGCAGAGATGGGGAGGATCCTTTCCTGGTAAGGGGA,-0.0692 ratio

# Series 5 — technique: protein-binding microarray; form: double-stranded DNA, one strand shown; sample: in vitro; concentration: 0.8 µM; notes: whole 60-bp probe, no competitor; direction: higher = stronger binding; all sequences stand within: … GTCTTGATTCGCTTGACGCTGCTG
# Target: Centromere-binding protein 1, full length, N-terminal tag (CBF1, Saccharomyces cerevisiae, UniProt P17106, residues 1-351)
# Chain of UniProt P17106 (whole entry, looked up): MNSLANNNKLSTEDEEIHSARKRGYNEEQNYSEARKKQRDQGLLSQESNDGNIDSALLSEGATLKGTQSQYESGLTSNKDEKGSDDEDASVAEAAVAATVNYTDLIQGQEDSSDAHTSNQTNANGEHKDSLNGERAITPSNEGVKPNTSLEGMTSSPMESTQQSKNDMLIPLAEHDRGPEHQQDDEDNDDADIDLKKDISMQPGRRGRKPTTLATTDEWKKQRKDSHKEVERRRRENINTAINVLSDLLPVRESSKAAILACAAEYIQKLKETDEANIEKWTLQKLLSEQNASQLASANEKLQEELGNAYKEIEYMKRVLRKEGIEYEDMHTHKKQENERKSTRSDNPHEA
Strand,fluorescence intensity [a.u.]
GAAGTGTACCCCCCTCAACTGATCAACTGGTCATAG,484
GAATTTTCGTTAAAGGTGATTACAGGCGGTGACTAG,570
CTACGTTTTCCTCTTTTGGTGATGAGCAGCATCTTC,552
GAAGGAAAAATTGATCACGTGATATATAGCAACTAG,45500
GAAAGCTTTTTCGGTCATGAAGTCTGGTGGCATTAG,560
TGTACGAAGCTATCAGGTGAGGATATAGTAGTTAGG,712
GAAATGATCAAAATGCGTGTGGGCGGCTACAATTAG,580
GAACCGATGACATGCTGTGTGACGGTCTTGCATTAG,540
CTAGGTGATATTTCGCTCGTGGAAAAGCTAATGTTC,582
CTATTATCACCGTCTCACCATATCCCACGACTATTC,559
TGTACGAAGCTATCACACACGCCTATAGTAGTTAGG,531
CTAACCAATAGAGTGCACGTTTCTTGATGCTATTTC,668
GAAATGTTCCGGAAGCACGGGAGAAATGGACTTTAG,573
CTAAACAATCTTAGTCACCTTGTATTGATTCACTTC,555
CTACGTACATAATTCAGCGTGATATGATGAAATTTC,639
CTATTATTAAATTACCACGTTTTCGCATAACATTTC,782
CCTAACTACTATAATAAGGTGATATAGCTTCGTACA,536
CTATTATGAGACTGTATCATGACCATACCTTATTTC,553
GAAAGGCGGTTTAATTACGTGAAAAAATCCTACTAG,543
GAAAAAACAAAAACTCGTGAGTCACTGTGCATTTAG,583
CTATGCTCCACCTGCGAACACGTGGAAGTCGCATTC,3750
CTAAAATTGAACATTCAGGAGATTTTTGAATGCTTC,487
GAAACCAATCATGCTAACGTGGATGCGAAGGGATAG,560
GAAGATGAGGACGATGCTGATGGTGAAGACTCCTAG,504
CTAATTCAAAATAGGAAGGTGACAATGAAACCATTC,535

# Series 6 — target: CCND1, cyclin fold, Cln2 fusion (human); technique: yeast growth competition, sequencing; sample: yeast; notes: weak parent motif; baseline: not given; direction: higher = stronger binding
# Starting sequence: WEE2 docking peptide (human); KELRQKLNFSYCE; partner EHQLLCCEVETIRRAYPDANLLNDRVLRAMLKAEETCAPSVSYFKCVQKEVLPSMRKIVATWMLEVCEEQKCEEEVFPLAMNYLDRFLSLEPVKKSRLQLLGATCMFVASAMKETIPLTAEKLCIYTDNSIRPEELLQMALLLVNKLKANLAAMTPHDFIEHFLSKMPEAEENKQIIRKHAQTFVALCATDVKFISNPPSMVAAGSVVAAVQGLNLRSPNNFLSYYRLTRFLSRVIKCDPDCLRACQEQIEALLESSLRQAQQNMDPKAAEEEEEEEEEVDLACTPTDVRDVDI
Variant,normalised enrichment score
KELRQALNFSYCE [K6A],0.382
KELRQKLNFSYCA [E13A],0.292
KEARQKLNFSYCE [L3A],0.186
KELRQKLNASYCE [F9A],0.182
KELRAKLNFSYCE [Q5A],0.252
AELRQKLNFSYCE [K1A],0.0654
KELRQKANFSYCE [L7A],-0.0983

# For quick reference, copied from above (series 3):
Variant,relative binding score [%]
E14D,96.2
T73F,107
V40P,-1.69
P50S,5.31
R113P,34.7
S140D,1.09
R32C,89.4
V40I,78.1
E127K,104
Q2Y,89.8
G148F,66.6
T106G,38.3
S9R,98.3
Y53W,98.6
V70S,84.4
